{"data": "Assay results collected from several papers", "note": "± gives the spread as reported."}
{"SMILES": "COc1ccc2c3c([nH]c2c1)[C@H](CO)N(Cc1ccccc1)CC31CCN(C(=O)Cc2ccccc2)CC1", "target or system": "HEp-2, uninfected", "endpoint": "CC50", "result": "99 µM"}
{"SMILES": "CCCCC[CH2][Hg][S]c1nc(N)nc2[nH]cnc12", "target or system": "HepG2 cells", "test": "cell viability", "conditions": "24 h", "endpoint": "CC50", "result": "3.41 µM"}
{"SMILES": "O=c1sn(-c2cccc3ccccc23)c(=O)n1Cc1ccccc1", "target or system": "RD", "conditions": "3 (unit not given), 33 °C, added: MgCl2 30 mM", "endpoint": "CC50", "result": "12.8 µM"}
{"SMILES": "Cc1cccc(-c2ccc([C@@H]3[C@@H](CO)N4CCCCN(S(=O)(=O)c5cn(C)cn5)C[C@@H]34)cc2)c1", "target or system": "HEp-2, uninfected", "conditions": "original sample", "endpoint": "CC50", "result": "54 µM"}
{"SMILES": "CCCN(CCC)C(=S)NN=Cc1ccccn1.[Cl][Cu][Cl]", "target or system": "HepG2 cells", "test": "cell viability", "conditions": "24 h", "endpoint": "CC50", "result": "< 1.56 µM"}
{"SMILES": "CC[C@H]1CN2CCc3cc(OC)c(OC)cc3[C@@H]2C[C@@H]1C[C@H]1NCCc2cc(O)c(OC)cc21", "target or system": "BHK-21", "conditions": "24 (unit not given)", "endpoint": "CC50", "result": "18.4 ± 2.73 µM"}
{"SMILES": "CC(=NNC(=S)N1CCCCCC1)c1ccccn1", "target or system": "HepG2 cells", "test": "cell viability", "conditions": "24 h", "endpoint": "CC50", "result": "5.73 µM"}
{"SMILES": "Cn1cnc(S(=O)(=O)N2CCCCN3[C@H](CO)[C@@H](c4ccc(-c5ccc(F)cc5)cc4)[C@@H]3C2)c1", "target or system": "HEp-2, uninfected", "endpoint": "CC50", "result": "64 µM"}
{"SMILES": "CCCCCCNC(=O)n1cc(F)c(=O)[nH]c1=O", "target or system": "RD", "conditions": "3 (unit not given), 33 °C, added: MgCl2 30 mM", "endpoint": "CC50", "result": "18.5 µM"}
{"SMILES": "CCCCCCCCCCCCCCCCSSCCOP(=O)(O)CO[C@H](C)Cn1cnc2c(N)ncnc21", "target or system": "human PBMC", "test": "cell growth or viability", "endpoint": "CC50", "result": "14.3 µM"}
{"SMILES": "CN[C@@](C)(C[18F])C(=O)O", "system": "SCID mouse U87 xenograft, brain", "conditions": "60 min, post injection", "endpoint": "tissue uptake", "result": "0.5 ± 0.1 %ID/g"}
{"SMILES": "CN(C)c1ccc(/C=c2/c3cc(O)ccc3n3c2cc(-c2ccccc2)[n+]3C)cc1", "target or system": "HepG2 cells", "test": "cell viability", "conditions": "24 h", "endpoint": "CC50", "result": "19.3 µM"}
{"SMILES": "O=S(=O)(c1cccs1)N1CCCCN2[C@H](CO)[C@@H](c3ccc(/C=C/c4ccccc4)cc3)[C@@H]2C1", "target or system": "HEp-2, uninfected", "endpoint": "CC50", "result": "> 100 µM"}
{"SMILES": "O=S(=O)(O)C(F)(F)C(F)(F)C(F)(F)C(F)(F)C(F)(F)C(F)(F)C(F)(F)C(F)(F)F", "target or system": "BeWo", "conditions": "24 h, vehicle co-incubation", "endpoint": "CC50", "result": "725 ± 56.8 µM"}
{"SMILES": "CCC[C@H](NC(=O)[C@@H]1[C@H]2CCC[C@H]2CN1C(=O)[C@@H](NC(=O)[C@@H](NC(=O)c1cnccn1)C1CCCCC1)C(C)(C)C)C(=O)C(=O)NC1CC1", "target or system": "RD", "conditions": "3 (unit not given), 33 °C, added: MgCl2 30 mM", "endpoint": "CC50", "result": "48.8 µM"}
{"SMILES": "CCCCCCCCCCCCCCCCOP(=O)([O-])OCC[N+](C)(C)C", "target or system": "J774A.1", "test": "alamarBlue", "endpoint": "CC50", "result": "128 ± 8.85 µM"}
{"note": "Repeated from above:"}
{"SMILES": "Cc1cccc(-c2ccc([C@@H]3[C@@H](CO)N4CCCCN(S(=O)(=O)c5cn(C)cn5)C[C@@H]34)cc2)c1", "target or system": "HEp-2, uninfected", "conditions": "original sample", "endpoint": "CC50", "result": "54 µM"}
{"SMILES": "CCCCCCCCCCCCCCCCSSCCOP(=O)(O)CO[C@H](C)Cn1cnc2c(N)ncnc21", "target or system": "human PBMC", "test": "cell growth or viability", "endpoint": "CC50", "result": "14.3 µM"}
